Published values from different studies.
Parts stem from different laboratories: compare values within a part only.

Block 1 — method: RNA Bind-n-Seq; form: RNA; sample: in vitro; concentration: 200 nM; setting: whole 134-nt RNA, ends assumed; together with: 150 mM KCl; reference: input library; direction: higher = stronger binding; endpoint: log2 enrichment
Target: Ras GTPase-activating protein-binding protein 1, full length (G3BP1, Homo sapiens, UniProt Q13283)
Chain of UniProt Q13283 (whole entry, looked up): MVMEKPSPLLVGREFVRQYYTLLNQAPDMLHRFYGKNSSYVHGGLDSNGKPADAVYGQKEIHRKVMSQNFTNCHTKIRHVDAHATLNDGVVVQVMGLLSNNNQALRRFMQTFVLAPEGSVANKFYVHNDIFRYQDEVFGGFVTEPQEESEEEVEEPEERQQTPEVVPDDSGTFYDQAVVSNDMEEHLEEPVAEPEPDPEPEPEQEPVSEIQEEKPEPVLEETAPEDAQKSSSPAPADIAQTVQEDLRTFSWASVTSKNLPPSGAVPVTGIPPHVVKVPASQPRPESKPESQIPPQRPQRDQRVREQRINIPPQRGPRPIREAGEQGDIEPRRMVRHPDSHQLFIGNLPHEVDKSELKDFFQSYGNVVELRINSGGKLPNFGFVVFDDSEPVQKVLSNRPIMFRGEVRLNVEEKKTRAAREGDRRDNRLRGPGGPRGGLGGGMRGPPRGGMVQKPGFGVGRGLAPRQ
Strand = GGGAGUUCUACAGUCCGACGAUCCACAGACAACACGCACCCACACAUACACAGAGGGAAGGGGUUGGGAUGGGGACAGGGUGCACAGCAGGGCGGGGUAGGACCCCAGCCCCUUGGAAUUCUCGGGUGUCAAGG; result = 1.74
Strand = GGGAGUUCUACAGUCCGACGAUCUCCUGUGCUACACAUCGUAUGUACCGAAUCGGGGAAAAAAAGGGGAGGGGUUUUUGGGGAAAGUAUUAUGUUACGCCGUUCGGAUCUGCAUGGAAUUCUCGGGUGUCAAGG; result = 0.515
Strand = GGGAGUUCUACAGUCCGACGAUCGUCCUGUGCUACACAUCGUAUGUACCGAAUCGGGGUUUUUGGGUUUUUGGGUUUUUGGGAAAGUAUUAUGUUACGCCGUUCGGAUCUGCAUGGAAUUCUCGGGUGUCAAGG; result = -0.296

Block 2 — method: protein binding microarray; form: double-stranded DNA, one strand shown; sample: in vitro; concentration: not given; reference: not given; direction: higher = stronger binding; endpoint: E-score
Target: Histone acetyltransferase KAT6A, winged helix 2, GST fusion (KAT6A, Homo sapiens, UniProt Q92794, residues 85-181)
Setting: 8-mer, flanks averaged, mean of 2 arrays, mostly near background
Construct (chain): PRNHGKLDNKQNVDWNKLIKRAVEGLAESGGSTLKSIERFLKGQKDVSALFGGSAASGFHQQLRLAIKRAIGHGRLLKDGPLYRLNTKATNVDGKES
Strand = ACCCATAA; result = -0.115
Strand = GAATCACC; result = -0.0699
Strand = CGGCAAAG; result = -0.00738
Strand = ACCAAAAA; result = 0.22

Block 3 — method: universal PBM; form: double-stranded DNA, one strand shown; sample: in vitro; concentration: not given; direction: higher = stronger binding; endpoint: E-score
Target: Sal-like protein 4, full length isoform B (SALL4, Homo sapiens, UniProt Q9UJQ4-2, residues 1-616)
Setting: 8-mer, flanks averaged, mean of replicates
Residues (chain): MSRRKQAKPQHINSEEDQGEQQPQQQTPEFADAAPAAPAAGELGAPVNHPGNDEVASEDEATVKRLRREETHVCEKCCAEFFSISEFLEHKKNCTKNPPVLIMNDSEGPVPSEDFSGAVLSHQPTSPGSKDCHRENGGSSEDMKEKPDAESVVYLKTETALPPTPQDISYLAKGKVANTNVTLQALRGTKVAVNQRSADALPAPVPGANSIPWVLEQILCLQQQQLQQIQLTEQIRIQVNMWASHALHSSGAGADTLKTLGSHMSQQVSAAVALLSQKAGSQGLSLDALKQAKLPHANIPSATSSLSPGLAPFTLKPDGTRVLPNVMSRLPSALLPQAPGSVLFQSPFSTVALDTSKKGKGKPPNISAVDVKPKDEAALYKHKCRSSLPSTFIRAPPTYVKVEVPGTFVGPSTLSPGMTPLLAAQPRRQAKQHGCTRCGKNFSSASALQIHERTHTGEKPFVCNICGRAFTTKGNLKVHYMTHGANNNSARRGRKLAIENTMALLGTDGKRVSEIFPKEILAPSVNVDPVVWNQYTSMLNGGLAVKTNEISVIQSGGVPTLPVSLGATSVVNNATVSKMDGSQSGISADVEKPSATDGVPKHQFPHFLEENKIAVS
Strand = AATCTTTA; result = 0.263
Strand = AGAGGCAC; result = -0.139
Strand = AACCACAC; result = -0.0138
Strand = GATCTGTA; result = 0.00297
Strand = CCGTGGTC; result = -0.348

Mixed results
Molecule = PhoQ, residues 284 288 289 292 302 303 AGCYAI; target = PhoP, residues 12 14 15 18 19 TPWLV (Escherichia coli, UniProt P23836); assay = Sort-seq, measured: YFP reporter; test system = E. coli; setting = PhoQ-PhoP variant library, together with: 10 µM Mg2+; how to read = reference: high Mg2+ state, higher = stronger signaling; endpoint = fold induction; result = 0.782

A few entries again (block 2):
Strand = GAATCACC; result = -0.0699
